# Measurements pooled from the literature.
# A part holds a random share of what one study measured. Changes are numbered by the printed parent chain.

# Sample 1
# Target: Sal-like protein 4, full length isoform B (SALL4, Homo sapiens, UniProt Q9UJQ4-2, residues 1-616)
# Method: universal PBM
# Molecule type: double-stranded DNA, one strand shown
# Matrix: in vitro
# Tested at: not given
# Notes: 8-mer, flanks averaged, mean of replicates
# Direction: higher = stronger binding
# Target sequence (chain): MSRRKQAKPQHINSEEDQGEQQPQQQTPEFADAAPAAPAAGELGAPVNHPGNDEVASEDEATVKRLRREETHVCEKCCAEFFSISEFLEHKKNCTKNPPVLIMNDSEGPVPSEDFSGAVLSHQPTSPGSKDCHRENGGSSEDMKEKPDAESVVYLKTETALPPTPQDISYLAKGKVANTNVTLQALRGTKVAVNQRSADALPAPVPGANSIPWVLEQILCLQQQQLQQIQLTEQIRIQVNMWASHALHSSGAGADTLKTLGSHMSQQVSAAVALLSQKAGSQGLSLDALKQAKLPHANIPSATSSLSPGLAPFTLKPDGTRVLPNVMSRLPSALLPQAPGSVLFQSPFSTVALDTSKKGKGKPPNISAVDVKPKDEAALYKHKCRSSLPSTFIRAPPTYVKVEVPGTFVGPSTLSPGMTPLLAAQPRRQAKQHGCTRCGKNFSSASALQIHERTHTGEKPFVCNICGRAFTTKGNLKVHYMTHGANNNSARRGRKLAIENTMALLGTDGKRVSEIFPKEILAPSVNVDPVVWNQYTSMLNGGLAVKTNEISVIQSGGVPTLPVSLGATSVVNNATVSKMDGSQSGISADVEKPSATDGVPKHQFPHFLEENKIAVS
Strand,E-score
GAACCAAA,-0.142
GGAAATCC,-0.104
AACTAGGC,-0.0517
GACCCGTA,-0.277
AAGGTGCA,-0.026
CACTGCTG,-0.198
TATCACGA,0.134
CTAACTAG,0.123
ACTTTAGG,0.0401
GGTGTCCA,-0.0922
CGTATATC,0.0715
ATATTAAA,0.433
CTGCTCAC,-0.236
CACAGCTA,-0.0487
CTTACATC,0.104

# Sample 2
# Target: Histone acetyltransferase KAT6A, winged helix 2, GST fusion (KAT6A, Homo sapiens, UniProt Q92794, residues 85-181)
# Method: protein binding microarray
# Molecule type: double-stranded DNA, one strand shown
# Matrix: in vitro
# Tested at: not given
# Notes: 8-mer, flanks averaged, mean of 2 arrays, mostly near background
# Reference: not given
# Direction: higher = stronger binding
# Construct (chain): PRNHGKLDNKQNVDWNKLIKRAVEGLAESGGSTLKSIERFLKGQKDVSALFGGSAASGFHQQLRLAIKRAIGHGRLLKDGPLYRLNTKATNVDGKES
Strand,E-score
CTACCCAA,-0.085
CGACACCA,-0.135
AGGCGGAG,0.213
ATGTCGAG,-0.1
GAGCACTA,-0.00216
AAGATCCG,-0.133
AGGCCGTA,0.233
CTGAGCCC,-0.0756
GATAGTGC,-0.155
CTCAATAC,0.0046
CCTGAGCC,0.0403
TCGTCTCA,-0.0817
AAGGATGG,-0.0389
AAGATATG,0.173
AGTAGTCC,-0.0992
GTAACGCA,0.076
CTTCAGAC,-0.0718
CGGATACA,-0.108
GCATGTCA,-0.0793
CACTCACC,-0.0164
AAGTGGAC,0.0868
GACCAAAA,0.193

# Sample 3
# Target: BATF, bZIP domain (human)
# Method: DHFR protein complementation
# Matrix: yeast
# Notes: single substitutions, most at no-binding floor
# Reference: wild-type JUN-FOS pair
# Direction: higher = stronger binding
# Starting sequence: JUN, bZIP domain (human); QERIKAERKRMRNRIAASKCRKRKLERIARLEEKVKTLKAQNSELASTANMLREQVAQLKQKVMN; partner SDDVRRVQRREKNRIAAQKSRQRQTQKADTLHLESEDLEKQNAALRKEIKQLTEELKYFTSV
Change,binding fitness
L52K,-0.948 natural log
V56N,-0.933 natural log
R30D,0.119 natural log
A46I,0.0521 natural log
L31T,-0.198 natural log
M51I,0.00146 natural log
R53C,-0.581 natural log
L45E,-1.17 natural log
Q41D,-0.135 natural log

# Sample 4
# Target: CCNB2, cyclin fold, Cln2 fusion (human)
# Method: yeast growth competition, sequencing
# Matrix: yeast
# Notes: weak parent motif
# Reference: not given
# Direction: higher = stronger binding
# Starting sequence: WEE1 docking peptide (human); CTLRQKLIFSPCS; partner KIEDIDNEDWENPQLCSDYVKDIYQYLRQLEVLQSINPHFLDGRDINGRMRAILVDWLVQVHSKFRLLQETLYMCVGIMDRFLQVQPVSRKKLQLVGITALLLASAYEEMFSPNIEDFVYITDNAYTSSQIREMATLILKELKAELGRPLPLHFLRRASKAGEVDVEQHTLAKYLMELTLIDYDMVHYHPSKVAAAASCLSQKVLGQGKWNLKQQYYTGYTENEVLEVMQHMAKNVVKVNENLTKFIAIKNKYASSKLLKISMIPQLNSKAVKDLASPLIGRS
Change,normalised enrichment score
CALRQKLIFSPCS [T2A],0.682
CTLRQALIFSPCS [K6A],-0.138
CTLRQKLIFSACS [P11A],0.563
CTLRQKLIASPCS [F9A],0.109
CTLRQKAIFSPCS [L7A],0.229
CTLRQKLIFSPAS [C12A],0.33

# Further values, each from its own experiment
Molecule,target,test,test system,conditions,how to read,endpoint,value
"PhoQ, residues 284 288 289 292 302 303 AEGLLW","PhoP, residues 12 14 15 18 19 AQCLL (Escherichia coli, UniProt P23836)","Sort-seq, measured: YFP reporter",E. coli,"PhoQ-PhoP variant library, added: 10 µM Mg2+","reference: high Mg2+ state, higher = stronger signaling",fold induction,1.01

# Some of these lines once more (sample 1):
Strand,E-score
GAACCAAA,-0.142
CACAGCTA,-0.0487
GGAAATCC,-0.104
